# Assay results pooled from the literature.
# Compare with care: the assays were run in different laboratories. “And” joins repeats or separate records; there may be more than shown. ± gives the spread as reported.
# ESR2: Estrogen receptor beta (ESR2, Homo sapiens, UniProt Q92731)
# Sequence of UniProt Q16774 (whole entry, unmodified, looked up): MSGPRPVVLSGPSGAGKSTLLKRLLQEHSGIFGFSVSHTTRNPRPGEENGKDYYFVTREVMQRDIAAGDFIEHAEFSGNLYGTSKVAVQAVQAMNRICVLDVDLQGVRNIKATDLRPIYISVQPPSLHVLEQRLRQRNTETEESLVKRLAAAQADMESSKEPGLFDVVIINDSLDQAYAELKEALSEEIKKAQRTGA
# Sequence of UniProt Q92731 (whole entry, looked up): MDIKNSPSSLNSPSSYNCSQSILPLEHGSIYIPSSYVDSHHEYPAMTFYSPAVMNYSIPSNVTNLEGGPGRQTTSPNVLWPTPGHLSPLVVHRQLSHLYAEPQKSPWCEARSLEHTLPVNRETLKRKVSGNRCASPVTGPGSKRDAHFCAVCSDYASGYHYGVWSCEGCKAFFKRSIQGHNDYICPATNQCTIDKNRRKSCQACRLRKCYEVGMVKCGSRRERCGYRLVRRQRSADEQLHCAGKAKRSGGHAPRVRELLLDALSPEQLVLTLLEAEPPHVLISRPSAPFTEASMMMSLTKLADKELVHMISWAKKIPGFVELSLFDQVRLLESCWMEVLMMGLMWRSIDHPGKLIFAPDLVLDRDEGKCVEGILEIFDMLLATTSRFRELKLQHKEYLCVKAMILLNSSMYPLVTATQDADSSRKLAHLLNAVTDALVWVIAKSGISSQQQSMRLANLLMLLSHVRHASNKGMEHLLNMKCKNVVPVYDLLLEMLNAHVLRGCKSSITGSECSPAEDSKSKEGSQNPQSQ
# Sequence of UniProt P51575 (whole entry, unmodified, looked up): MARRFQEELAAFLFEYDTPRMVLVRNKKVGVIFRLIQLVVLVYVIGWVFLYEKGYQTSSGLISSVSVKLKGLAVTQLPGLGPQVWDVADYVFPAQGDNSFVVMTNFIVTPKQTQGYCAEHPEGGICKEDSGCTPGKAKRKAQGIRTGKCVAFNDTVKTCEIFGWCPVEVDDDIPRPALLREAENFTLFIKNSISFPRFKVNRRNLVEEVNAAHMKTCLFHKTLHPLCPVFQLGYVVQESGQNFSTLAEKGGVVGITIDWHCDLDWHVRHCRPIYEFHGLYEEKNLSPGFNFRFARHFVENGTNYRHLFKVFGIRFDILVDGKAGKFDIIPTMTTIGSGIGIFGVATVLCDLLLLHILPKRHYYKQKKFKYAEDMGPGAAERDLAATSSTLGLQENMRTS
# Sequence of UniProt Q9NQS5 (whole entry, looked up): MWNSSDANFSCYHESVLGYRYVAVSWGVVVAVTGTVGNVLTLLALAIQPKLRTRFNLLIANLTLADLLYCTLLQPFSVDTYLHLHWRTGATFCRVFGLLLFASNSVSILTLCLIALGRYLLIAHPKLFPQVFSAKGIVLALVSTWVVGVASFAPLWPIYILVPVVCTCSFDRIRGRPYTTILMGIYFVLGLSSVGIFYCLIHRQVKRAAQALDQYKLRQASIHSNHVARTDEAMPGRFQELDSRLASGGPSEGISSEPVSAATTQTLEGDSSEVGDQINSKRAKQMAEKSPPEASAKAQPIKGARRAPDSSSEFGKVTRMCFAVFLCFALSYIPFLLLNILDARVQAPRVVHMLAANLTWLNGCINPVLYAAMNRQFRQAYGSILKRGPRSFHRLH
Compound,tested on,assay,system,setting,scale,measurement,value
CNC(=O)c1ccc(-c2cnc3ncc(Cc4ccc5ncccc5c4)n3n2)cc1F,,"CTCAE v4.0, any causality",human cancer patients,"oral, 600 mg twice daily, expansion cohort at RP2D",,creatinine increase incidence (all grades),8%
Cc1ccc(NC(=O)c2ccc(CN3CCN(C)CC3)cc2)cc1Nc1nccc(-c2cncc(-c3oncc3C)c2)n1,,,"C57BL/6 mice, male, brain","oral, 100 mg/kg/day, day 1",,t1/2,228 min
CN(C(=O)n1cnc(-c2cccnc2)c1)C1CCCCC1,,,"Wistar rat, hippocampus","oral, 10 mg/kg/day of BIA 10-2474, 24 h, repeated 5 days",,concentration,9.6 ± 0.1 ng/g
C[C@@H]1O[C@@H](O[C@H]2[C@H](Oc3cc(O)c(C(=O)CCc4ccc(O)cc4)c(O)c3)O[C@H](CO)[C@@H](O)[C@@H]2O)[C@H](O)[C@H](O)[C@H]1O,ESR2,"array formation, agonist",GFP-ERβ PRL-HeLa,1 h,,EC50,2370 nM
Cc1ccc(Sc2ccccc2N2CCNCC2)c(C)c1,,refers to: Somnolence,healthy adult men,"oral, 20 mg daily, 12 days",,participants with TEAE,0%
Cc1nc2cccc(OCC(C)(C)C(=O)NC(C)C)c2c(N)c1C(=O)O,,,Swiss albino CD-1 mouse,"oral, 2000 mg/kg, 48 h",,mean body weight change,0.8 ± 0.6 g
Cc1ccc(C(=O)N(CCCN)C(c2nc3snc(C)c3c(=O)n2Cc2ccccc2)C(C)C)cc1 (stereo not shown),,refers to: Hypokalemia,human patients,"intravenous, 16 mg/day, CTCAE grade ≥3",,patients with adverse events,22%
N#CCNC(=O)c1ccc(-c2ccnc(Nc3ccc(N4CCOCC4=O)cc3)n2)cc1,,,"healthy volunteers, plasma","dose not given, added: rifampin single-dose",reference: with rifampin over alone,AUCinf geometric mean ratio,112%
O=C(O)CC[C@H](NC(=O)N[C@@H](CCCCNC(=O)[C@H](Cc1ccc2ccccc2c1)NC(=O)CCCCCNC(=O)CN1CCN(CC(=O)O)CCN(CC(=O)O)CCN(CC(=O)O)CC1)C(=O)O)C(=O)O [gallium-68 labelled],,PET/CT,"mouse, 22Rv1 xenograft, muscle","intravenous, 3.7 MBq, 2 h",,SUVmean,0.18 ± 0.01 SUV
CN1C(=O)[C@@H](NC(=O)c2nnc(Cc3ccccc3)[nH]2)COc2cccnc21,,phase I single ascending dose,"human, male and female","oral, 10 mg, fasted",,medical device site reaction incidence,16.7%
Cc1cc(NC2CCN(C(=O)OC3CCN(C(=O)/C=C/CN(C)C)C3)CC2)n2ncc(C(C)C)c2n1 (stereo not shown),,,patients with advanced solid tumours,"dose not given, QD arm, any grade",,patients with Hypomagnesemia,12%
C=CCN1CC(=O)N2[C@@H](Cc3ccc(O)cc3F)C(=O)N(Cc3cccc(N4CC(N5CCN(CC)CC5)C4)n3)C[C@@H]2N1C(=O)NCc1ccccc1,,,advanced solid tumour patients,"oral, 100 mg twice daily, any grade, dose-escalation",,treatment-related AST increased,33.3%
CCCCC1=NC2(CCCC2)C(=O)N1Cc1ccc(-c2ccccc2S(=O)(=O)Nc2noc(C)c2C)c(COCC)c1,,,blood and plasma,,,blood-to-plasma ratio,0.612
CCN1/C(=C/C(C)=O)Sc2ccc(F)cc21,,,cynomolgus monkey,"oral, 100 mg/kg, 24 h post-dose",reference: pre-dose,QTc interval change,98.2 ± 2.7%
CCOc1c([C@H](C)n2nc(C)c3c(N)ncnc32)cc(Cl)c(F)c1[C@@H]1CNC(=O)C1,,,"patients, monotherapy","oral, 10 mg once daily, cycle 1 day 1",,Tmax median,1 h
Cn1cc(-c2ccc(-c3cncc(Cl)c3N3CCC4(CCNC4=O)CC3)cc2)cn1,COLO 205,"gene expression, microarray, refers to: TUBB3 mRNA",,"concentration not given, 2 h",reference: untreated cells,log2 fold change,1.67
CCC(=O)N(CCC(c1ccc2c(c1)OCO2)c1ccccc1OC)Cc1ccccc1 (stereo not shown),,,"mouse, blood","i.p., 60 mg/kg twice daily, 2 weeks",,mean corpuscular haemoglobin,15.5 pg
CC(C)(C(=O)N1CCOc2c(C#N)cncc2C1)C(F)F,,refers to: Radiculopathy,human,"oral, 10 mg, CSF pharmacokinetic cohort",,subjects with adverse event,0%
COc1cccc(OC)c1-c1cc(C(=O)NC2(C(=O)O)C3CC4CC(C3)CC2C4)nn1-c1ccc(C(=O)N(C)CCCN(C)CCCN(C)C(=O)CN2CCN(CC(=O)[O-])CCN(CC(=O)[O-])CCN(CC(=O)[O-])CC2)cc1C(C)C.[177Lu+3] (stereo not shown),,,"mouse, HT-29 xenograft","168 h post injection, biodistribution",reference: tumour over muscle uptake,tumour-to-muscle ratio,6.06
Cc1cc(Nc2cc3ncccc3c(N[C@@H]3C[C@H]4CC[C@@H](C3)N4CCC#N)n2)n[nH]1,,,"human, plasma","80 mg, day 14, geometric mean",,AUC(0-4),3.62 ng·h/mL
CCNCCCNC/C=C\CNCCCNCC,,LC-MS/MS,"human cancer patients, plasma","intravenous infusion 60 min, 100 mg, median, cycle 1",,AUMC(0-inf),506 ng·h²/mL
c1ccc(-c2nc(NCc3nc4ccccc4o3)c3ccccc3n2)nc1,,,Japanese Pharmacopoeia disintegration test solution 2,pH 6.8,,kinetic solubility,38 µg/mL
CNCc1ccc(-c2[nH]c3cc(F)cc4c3c2CCNC4=O)cc1,,,human patients,"oral, 600 mg twice daily, grade 5",,nausea incidence,0%
O=c1ccoc2cc(O)ccc12,ESR2,"array formation, agonist",GFP-ERβ PRL-HeLa,1 h,,EC50,5220 nM
Nc1ncnc2c1ncn2[C@@H]1O[C@H](COP(=O)(O)CP(=O)(O)OP(=O)(O)O)[C@@H](O)[C@H]1O,"P2X purinoceptor 1 (P2RX1, Homo sapiens, UniProt P51575, K215A)",saturation binding,HEK293,25 nM,,specific binding,2130 CCPM and 2600 CCPM
COc1ccc2c(c1)CN(C(=O)CCN1CCC(Cc3ccccc3)CC1)CC[S@@+]2[O-],,telemetry,conscious male beagle dogs,"intravenous, 2 mg/kg, 2 h",,QTc,237 ± 10 ms
O=C(COc1ccc(Cl)cc1)NC12CC(c3nnc([C@H]4C[C@@H](OC(F)(F)F)C4)o3)(C1)C2,,refers to: muscle spasms,human,"oral, 260 mg once daily, 14 days",,adverse event incidence,14.3%
Cc1cccc(CNC(=O)c2cn(CCNC(=O)c3ccccc3Sc3c([N+](=O)[O-])ncn3C)c3cc4c(cc3c2=O)OC(F)(F)O4)n1,,,"Sprague-Dawley rat, male, plasma","intravenous, 5 mg/kg of parent drug",,AUC(0-inf),266 ± 44 ng·h/mL
C[C@H]1CN(C(=O)CC#N)[C@]12CCN(c1ncnc3[nH]ccc13)C2,,,healthy human,"oral, 1.5 mg, single dose",,subjects with Vomiting,0%
CCCC1CCC(c2ccc(-c3ccc(CC)cc3)cc2)CC1 (stereo not shown),,,"rat, placenta","5000 ng/mL in perfusate, high dose, mixture of 21 LCMs",,median placental accumulation,320 ng/g
O=C(Nc1nc2cccc(-c3ccc(CN4CCS(=O)(=O)CC4)cc3)n2n1)C1CC1,,refers to: general and administration-site disorders,rheumatoid arthritis patients,"oral, 150 mg once daily, 4 weeks, any relatedness",,treatment-emergent adverse events,6.7%
Cn1cc(Nc2nccc(-c3ccc4c(c3)CN(C3COC3)CC[C@H]4NC(=O)c3cn(C(C)(C)C)nn3)n2)cn1,,,"human, whole blood","300 mg twice daily, day 14",reference: pre-dose baseline,B cell count change,42.9%
FC(F)(F)c1ccc(CNc2ccc(Cc3c[nH]c4ncc(Cl)cc34)cn2)cn1,,refers to: maculo-papular rash,"human, advanced solid tumours, all patients","oral, 1000 mg/day, any grade",,treatment-related adverse events,9%
O=C(CSc1nnc(-c2ccncc2)o1)Nc1ccc(F)cc1,,,aqueous buffer,pH 7.4,,thermodynamic solubility,161 µM
N/N=c1\[nH][nH]/c(=N\N)c2ccccc12.O=S(=O)(O)O,Nedd8-cullin1 interaction,"neddylation, AlphaScreen",,100 µM,,inhibition,104%
NC(=O)N1c2ccccc2C=Cc2ccccc21,,refers to: investigations (SOC),human male,"oral, dose not given, CTCAE on-treatment AEs",,adverse events incidence,7%
NS(=O)(=O)OC[C@@H]1C[C@@H](n2ccc3c(N[C@H]4CCc5ccccc54)ncnc32)C[C@@H]1O,,,"human males, plasma","median, BSA-adjusted",,clearance,19.2 L/h/m²
Nc1nc2c(ncn2[C@@H]2O[C@H](COP(=O)(O)O)[C@@H](O)[C@H]2O)c(=O)[nH]1,"GUK1 (Homo sapiens, UniProt Q16774, S37A)","enzyme activity, NADH-coupled",,1000 µM,,reaction rate,2.25 s⁻¹ and 2.3 s⁻¹ and 3.75 s⁻¹
O=C(OC(C(F)(F)F)C(F)(F)F)N1CCN(Cc2cccc(Oc3ccccc3)c2)CC1,,PET blocking study,"rhesus monkey, brain HIP","0.1 mg/kg, compound pretreatment, added: [18F]T-401 tracer",,k2,23.2 min⁻¹
N#Cc1ccc2c(c1)[C@H]1CCCN(C(=O)c3ccc4[nH]cnc4c3)[C@H]1C2,,,human,"20 mg, day 15",reference: baseline,ACTH level change,2.2 pmol/L
Nc1cc(N2CCCCC2)nc(N)[n+]1[O-],Nedd8-cullin1 interaction,"neddylation, AlphaScreen",,100 µM,,inhibition,14.5%
CNc1ccc(-c2nc3ccc(O)cc3s2)cc1 [carbon-11 labelled],,ex vivo biodistribution,"APP/PS1 mouse, AD model, feces","intravenous, 30 min",,SUV,0.922 ± 0.819
CCCC1CCC(c2ccc(OCC)c(F)c2F)CC1 (stereo not shown),,,"rat, fetus","5000 ng/mL in perfusate, high dose, mixture of 21 LCMs",,median fetal accumulation,1.42 ng/g
Cc1cc(-c2nccc3c2ccn3CC(=O)Nc2ccc(-c3cnccn3)cn2)ccn1,,,human,"20 mg once daily, multiple ascending dose",,subjects with blurred vision,0%
Cc1cccc(NS(=O)(=O)c2cc(C(=O)Nc3ccccc3C(=O)N3CCOCC3)ccc2Cl)c1,,,aqueous buffer,pH 7.4,,thermodynamic solubility,< 7.14 µM
CCC(C)n1ncn(-c2ccc(N3CCN(c4ccc(OCC5COC(Cn6cncn6)(c6ccc(Cl)cc6Cl)O5)cc4)CC3)cc2)c1=O (stereo not shown),,refers to: red blood cells in urine,healthy human participants,"oral, 200 mg, compound alone cohort",,adverse event incidence,7%
CCN1CCN(Cc2ccc(NC(=O)c3ccc(C)c(NC(=O)c4cncc(-c5cccs5)c4)c3)cc2C(F)(F)F)CC1,,,"C57BL/6 mice, plasma","intraperitoneal, 10 mg/kg",,extrapolated AUC share,7.21%
CO[C@]1(C(=O)N[C@@H](C)c2ccc(-n3cc(F)cn3)nc2)CC[C@H](c2nc(C)cc(Nc3cc(C)[nH]n3)n2)CC1,,,"humans, urine","oral, dose not given",reference: dose,excreted radioactivity,6.06%
O=c1cc(N2CCN(Cc3cccc4ccccc34)CC2)[nH]c(=O)[nH]1,"G-protein coupled receptor 84 (GPR84, Homo sapiens, UniProt Q9NQS5)","cAMP level, agonist",human cells,,,EC50,151 ± 44 nM

# A few entries again:
Compound,tested on,assay,system,setting,scale,measurement,value
Cc1ccc(Sc2ccccc2N2CCNCC2)c(C)c1,,refers to: Somnolence,healthy adult men,"oral, 20 mg daily, 12 days",,participants with TEAE,0%
Cc1ccc(NC(=O)c2ccc(CN3CCN(C)CC3)cc2)cc1Nc1nccc(-c2cncc(-c3oncc3C)c2)n1,,,"C57BL/6 mice, male, brain","oral, 100 mg/kg/day, day 1",,t1/2,228 min
CNCc1ccc(-c2[nH]c3cc(F)cc4c3c2CCNC4=O)cc1,,,human patients,"oral, 600 mg twice daily, grade 5",,nausea incidence,0%
CN(C(=O)n1cnc(-c2cccnc2)c1)C1CCCCC1,,,"Wistar rat, hippocampus","oral, 10 mg/kg/day of BIA 10-2474, 24 h, repeated 5 days",,concentration,9.6 ± 0.1 ng/g
C[C@@H]1O[C@@H](O[C@H]2[C@H](Oc3cc(O)c(C(=O)CCc4ccc(O)cc4)c(O)c3)O[C@H](CO)[C@@H](O)[C@@H]2O)[C@H](O)[C@H](O)[C@H]1O,ESR2,"array formation, agonist",GFP-ERβ PRL-HeLa,1 h,,EC50,2370 nM
O=C(O)CC[C@H](NC(=O)N[C@@H](CCCCNC(=O)[C@H](Cc1ccc2ccccc2c1)NC(=O)CCCCCNC(=O)CN1CCN(CC(=O)O)CCN(CC(=O)O)CCN(CC(=O)O)CC1)C(=O)O)C(=O)O [gallium-68 labelled],,PET/CT,"mouse, 22Rv1 xenograft, muscle","intravenous, 3.7 MBq, 2 h",,SUVmean,0.18 ± 0.01 SUV
CCN1CCN(Cc2ccc(NC(=O)c3ccc(C)c(NC(=O)c4cncc(-c5cccs5)c4)c3)cc2C(F)(F)F)CC1,,,"C57BL/6 mice, plasma","intraperitoneal, 10 mg/kg",,extrapolated AUC share,7.21%
